Assay results of several laboratories.
Every numbered part comes from another study and shows a few of its results, in no order. Substitutions count along the parent as printed.

Study 1
Target: Fragile X messenger ribonucleoprotein 1, C-terminal low-complexity region (Fmr1, Mus musculus, UniProt P35922)
Method: RNA Bind-n-Seq
Form: RNA
Sample: in vitro
Concentration: 200 nM
Notes: whole 134-nt RNA, ends assumed
With: 150 mM KCl
Baseline: input library
Reading: higher = stronger binding
Strand	log2 enrichment
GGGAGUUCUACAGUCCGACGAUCUCCUCAAGUCCUGUGCUACACAUCGUAUGUACCGAAUCGGGGCGGCGGCGGGAAAGUAUUAUGUUACGCCGUUCGGAUCUGCACUUCCAGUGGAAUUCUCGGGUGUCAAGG	0.325
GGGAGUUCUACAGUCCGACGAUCGGCAAGAGGAGGAACGACGUAGAAGAGAGGAAGAGAUGAUGAUUCGUCAACGUGAGAUGGAAGAACAAAUGAGGCGCCAAAGAGAGGAAAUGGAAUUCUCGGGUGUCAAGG	0.877
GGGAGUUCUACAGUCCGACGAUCCCUGUGCUACACAUCGUAUGUACCGAAUCGGUUUUUUUGGGGUUUUUUUGGUUUUUUUGGGAAAGUAUUAUGUUACGCCGUUCGGAUCUGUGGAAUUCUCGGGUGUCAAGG	-0.773
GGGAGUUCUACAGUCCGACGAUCCCUCAAGUCCUGUGCUACACAUCGUAUGUACCGAAUCGGAGGAGGAAAAAGGAAAGUAUUAUGUUACGCCGUUCGGAUCUGCACUUCCAGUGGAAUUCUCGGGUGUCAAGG	0.186
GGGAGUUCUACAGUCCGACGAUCCUCAAGUCCUGUGCUACACAUCGUAUGUACCGAAUCGGUUUGGAAAAAGGUGGAAAGUAUUAUGUUACGCCGUUCGGAUCUGCACUUCCAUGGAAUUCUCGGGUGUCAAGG	-0.0323
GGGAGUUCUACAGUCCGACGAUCCUCAAGUCCUGUGCUACACAUCGUAUGUACCGAAUCGGCCGGGCCGGGCCGGGAAAGUAUUAUGUUACGCCGUUCGGAUCUGCACUUCCAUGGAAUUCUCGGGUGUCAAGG	-0.382
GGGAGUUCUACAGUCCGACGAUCUGGCCCUGGUUGCAUGCGGGGAGGAAGAGGUGGCCUCAUGGAUCGUGGUGGUCCCGGUGGAAUGUUCAGAGGUGGCCGUGGUGGAGACAGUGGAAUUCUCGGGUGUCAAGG	-0.0545
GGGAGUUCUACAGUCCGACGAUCUCCUGUGCUACACAUCGUAUGUACCGAAUCGGGGUUUUUGGGGAAAAAGGGGAAAGGGGAAAGUAUUAUGUUACGCCGUUCGGAUCUGCAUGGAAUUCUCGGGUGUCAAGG	0.712
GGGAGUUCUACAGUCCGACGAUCCACAGACCACACGCACCCACACAGACACAGAGGGAAGGGGUUGGGAUGGGGACAGGGUGCACAGCAGGGCGGGGUAGGACCCCAGCCCCUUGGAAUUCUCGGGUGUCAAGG	1.26
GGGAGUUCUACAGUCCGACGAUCUGAGUAGAUCUAGAAAUGACAGUAUGACUUUGUUUCUAACAGCUCCAAAAUGGAUCAAAAUGUUUGUUUUGGAUGAAGCAGAUGAAAUGUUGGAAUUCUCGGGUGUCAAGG	-2.66
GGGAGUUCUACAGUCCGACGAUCGUCCUGUGCUACACAUCGUAUGUACCGAAUCAAAUUUUUAAACCCCCAAACCCCCAAAAAAGUAUUAUGUUACGCCGUUCGGAUCUGCACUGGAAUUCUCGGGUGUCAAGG	-0.398
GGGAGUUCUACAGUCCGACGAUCUGGCCCUGGUGGCAUGCGAGGAGGAAGAGGUGGCCUCAUGGAUCGUGGUGGUCCCGGUGGAAUGUUCAGAGGUGGCCGUGGUGGAGACAGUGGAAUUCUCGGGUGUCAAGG	0.166
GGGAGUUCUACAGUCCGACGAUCGUCCUGUGCUACACAUCGUAUGUACCGAAUCGGAAAAAGGAAAAAAAGGAAAAAAAGGAAAGUAUUAUGUUACGCCGUUCGGAUCUGCACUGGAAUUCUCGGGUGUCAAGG	-0.741
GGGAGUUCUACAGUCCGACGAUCCCUCAAGUCCUGUGCUACACAUCGUAUGUACCGAAUCGGGCGGCGGGCGGGGAAAGUAUUAUGUUACGCCGUUCGGAUCUGCACUUCCAGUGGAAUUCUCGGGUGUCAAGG	0.783

Study 2
Target: CCNF, cyclin fold, Cln2 fusion (human)
Method: yeast growth competition, sequencing
Sample: yeast
Notes: weak parent motif
Baseline: not given
Reading: higher = stronger binding
Starting sequence: FOXM1 docking peptide (human); PHLARPIKVESPP
Substitution	normalised enrichment score
AHLARPIKVESPP [P1A]	-0.514
PHLARPIAVESPP [K8A]	-0.488
PHLAAPIKVESPP [R5A]	-0.9
PHLARPIKVEAPP [S11A]	-0.438
PHLARPAKVESPP [I7A]	-0.743
PALARPIKVESPP [H2A]	-0.559

Study 3
Target: RNA binding protein fox-1 homolog 2, RRM domain, GST-SBP tag (RBFOX2, Homo sapiens, UniProt O43251-10, residues 100-194)
Method: RNA Bind-n-Seq
Form: RNA
Sample: in vitro
Concentration: 365 nM
Notes: natural RNA segment, single round, ends assumed
Baseline: no-protein control
Reading: higher = stronger binding
Residues (chain): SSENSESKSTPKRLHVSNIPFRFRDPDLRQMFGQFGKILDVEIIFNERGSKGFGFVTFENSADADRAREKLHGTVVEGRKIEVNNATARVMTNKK
Strand	RBNS enrichment (R)
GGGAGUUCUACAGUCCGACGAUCAUUUUGUGCAGUUAAUACUUAACAUUGAUUUAUUUUUUAAUCAUUUAAAUAUUAAUCAACUUUCCUUAAAAUAAAUAGCCUCUUAGGUAAAAAUAUAAGAACUUGAUAUAUGGAAUUCUCGGGUGCCAA	0.716
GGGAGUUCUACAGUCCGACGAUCUUCUAGCUUUUUCCUCCCCACAGGACCUUGGGUAAAAUGGUCAUUUGUAAGGUGAAUUUCAAAGGGAGGGUUUUAGCUUAGGUAGUUAUUUUCUACCUAACUUUUCAAGUUGGAAUUCUCGGGUGCCAA	0.623
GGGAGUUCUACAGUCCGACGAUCAGUAAUUGUCUUUUCAGAUGGAAACUAGAGAACUCUCCUAGGUGUGAUCUGCACUGGCCACUUGGCAGGCACAAGCUGCUUCCUUCCCCUCAGGUCUUAACCCUUCCCAGUGGAAUUCUCGGGUGCCAA	0.765
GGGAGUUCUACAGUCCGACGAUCUCUUAAACGGGUGUCAGCAAGAAGAAAAACUAACAAAAGACAGAAGGCCUGACUUUGGGGGGAGAGGGCAAGGGGUUCCUCUGGAUUGCAGACCACAUCGCACGGACCCCUGGAAUUCUCGGGUGCCAA	0.861
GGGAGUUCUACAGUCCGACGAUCUAAUCACCAUAUUGUAAAAUUUUGUGUUUUUAAAGCCAACUCUUUGCUCCGGUUUUUUCAUACGACUUAGUAUGGGGCAAAAAAGCAAUGUGAAGAAUCAACUCUAGGGUUGGAAUUCUCGGGUGCCAA	0.344
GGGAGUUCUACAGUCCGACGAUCGAACAUGAAAUUUAGUUGUGGUUAAAUUAUUUAUUUAUUUCAUGCAUUCAUUUUAUUUCCCUUAAGGUCUGGAUGAGACUUCUUUGGGGAGCCUCUAAAAAAAUUUUUCAUGGAAUUCUCGGGUGCCAA	0.617
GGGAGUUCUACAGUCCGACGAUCUGUAUGUCUCUCUCUACACUGUGGUGCACUUAACUUGUGGAAUUUUUAUACUAAAAAUGUAGAAUAAAGACUAUUUUGAAGAUUUGAAUAAAGUGAUGAAGUUGCAUUACUGGAAUUCUCGGGUGCCAA	0.373
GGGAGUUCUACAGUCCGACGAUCGUGUCUCACUAAAGCAUGAAAUGUGAAUUUUUAUUGUUGGAAAUAUAAUUUAAGGUAUUUAUGUUCUUCUCUGUGAGAAGGUUUAUUGUUAAUACAAGGUAUAAAAAACAUGGAAUUCUCGGGUGCCAA	10.5
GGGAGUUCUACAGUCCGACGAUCUUUCACAUCUCCAUAGCUAGACCCGCCAUGGGCAUUAUGACCGUGUCUCCUAAAGGGUCGGUUUUGUUACGCAACACGAAGAAUGCUGUCUCAGCCUUGUUUUUCUAGAGUGGAAUUCUCGGGUGCCAA	0.568
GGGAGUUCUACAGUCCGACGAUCGAGACGGGAGGGUGGAGUGAGACCCUCUGCGCUGAGUCCUCAGGGCUGUCUUGGAGGUAAGUGGAAGUAGUGGGCCCUGCUUCUUUUCUUUGUAGCCUUCCGGCUACAUCUGGAAUUCUCGGGUGCCAA	0.416
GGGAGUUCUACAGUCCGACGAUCGGGUGUUCCUGUUUAACUUUCUGGGUUUGUUUGUUUUAUUUUAUUAGAAAGACACUUAUAUGACACUCAGGUGUCUGCUAUUUAUCUUGAUUUCUAAAUGGUUCUGGAUUUGGAAUUCUCGGGUGCCAA	1.74
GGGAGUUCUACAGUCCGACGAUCGCCAUGGGCCCACAGAGUCUCGCUAUCAUCCCCAGCGUCGCAGUGUGGCAGGUGUUUGUAGGCUGUGGGUUCUGGCCACCUCGGGAAAUGAAUGGCACAGGUGAGGGCCUUGGAAUUCUCGGGUGCCAA	0.684

Other studies, line by line
Molecule	target	assay	test system	setting	scale	quantity	result
PhoQ, residues 284 288 289 292 302 303 ASTSDA	PhoP, residues 12 14 15 18 19 NHFIF (Escherichia coli, UniProt P23836)	Sort-seq, measured: YFP reporter	E. coli	PhoQ-PhoP variant library, with: 10 µM Mg2+	baseline: high Mg2+ state, higher = stronger signaling	fold induction	16.8

Some of these lines once more (study 2):
Substitution	normalised enrichment score
PALARPIKVESPP [H2A]	-0.559
AHLARPIKVESPP [P1A]	-0.514
PHLAAPIKVESPP [R5A]	-0.9
PHLARPIAVESPP [K8A]	-0.488
PHLARPIKVEAPP [S11A]	-0.438
